Measurements of several laboratories.
± marks the error that the study gave.
Target: Sigma non-opioid intracellular receptor 1 (SIGMAR1, Homo sapiens, UniProt Q99720)
Sequence of UniProt Q99720 (whole entry, looked up): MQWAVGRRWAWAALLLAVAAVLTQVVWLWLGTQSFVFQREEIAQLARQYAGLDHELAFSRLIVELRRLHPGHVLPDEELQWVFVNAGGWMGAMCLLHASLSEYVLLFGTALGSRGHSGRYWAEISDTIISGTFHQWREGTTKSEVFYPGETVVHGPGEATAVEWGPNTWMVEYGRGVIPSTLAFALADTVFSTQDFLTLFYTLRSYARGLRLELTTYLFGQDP

`COc1ccc(N=Nc2ccc3[nH]cc(CCN(C)C)c3c2)cc1` has a Ki of 1080 nM (binding, radioligand binding; ambient light).
The Ki of `CCCC[C@@H](NC(=O)[C@@H](N)Cc1ccc(O)cc1)C(=O)NCC(=O)N[C@@H](Cc1ccc(F)cc1)C(=O)N(C)CCC[C@@]1(c2ccc(F)cc2)OCc2cc(C#N)ccc21` is reported as 47 nM (binding).
For `OC1Cc2ccccc2CC1N1CCC2(C=Cc3ccc(F)cc32)CC1` (racemic), the Ki was 4.2 ± 0.1 nM (displacement, radioligand binding; HEK293; with: [3H](+)-pentazocine).
With `CCCC[C@@H](NC(=O)[C@@H](N)Cc1c(C)cc(O)cc1C)C(=O)NCC(=O)N[C@@H](Cc1ccc(F)cc1)C(=O)N(C)CCC[C@@]1(c2ccc(F)cc2)OCc2cc(C#N)ccc21` the Ki was 1900 nM (binding).
`CCN1CCCC1CNC(=O)c1cc(S(=O)(=O)CC)c(N)cc1OC` (centres unmarked) gave a Ki of 4420 nM (binding).
For `COc1cc(Nc2ncc(F)c(Nc3ccc4c(n3)NC(=O)C(C)(C)O4)n2)cc(OC)c1OC`, the IC50 was greater than 10000 nM.
With `OC1Cc2ccccc2CC1N1CCC2(CC1)C(Br)=Cc1ccccc12` (racemic) the Ki was 500 ± 630 nM (displacement, radioligand binding; HEK293; with: [3H](+)-pentazocine).
With `OC(CCN1CCCCC1)(c1ccccc1)C1CCCCC1` (centres unmarked) the Ki was 106 nM (binding).
